Measurements from different studies.
Lines come from different studies, so protocols differ. Numbers after ± are the reported error.

CCNc1cc2[o+]c3cc(NCC)c(C)cc3c(-c3ccccc3C(=O)OCCOCC[18F])c2cc1C
tissue uptake (rat, gut; 60 min): 1.39 ± 0.58 %ID/g

COc1ccc(C)cc1NC(=O)OC1CC2CCCC(C1)N2Cc1ccc(CC[18F])cc1 (stereo not drawn)
tracer uptake (mouse, fat; 2 h, tumour-bearing): 12.6 %ID/g

CC(C)[C@H](NC(=O)CNC(=O)[C@H](CCC(N)=O)NC(=O)[C@H](C)N)C(=O)O
possibly related adverse events (human; single dose, 10 mg/kg): 0%

CC[C@H](C)C(=O)N1CCC(NC(=O)Nc2ccc(OC(F)(F)F)c(F)c2)CC1
subjects with any AE (healthy volunteers; oral, 8 mg single dose, 14 (unit not given)): 50%

CCCCCCCCCCCCC(=O)O.O=C1CCCC2C3CCCN4CCCC(CN12)C34 (stereo not drawn)
standard enthalpy of micellization (electrical conductivity; water; 293.15 K, critical micelle concentration): -1.22 kcal/mol

CN(C)C(CNC(=O)Nc1cc(C(F)(F)F)ccc1N1CCOCC1)c1ccncc1 (stereo not drawn)
serum magnesium (mouse, serum; intraperitoneal, 180 mg/kg single dose): 2.6 mg/dL

CCCCCCCC(=O)OC[C@H](NC(=O)[C@H](CO)NC(=O)CN)C(=O)N[C@@H](Cc1ccccc1)C(=O)N[C@@H](CC(C)C)C(=O)N[C@@H](CO)C(=O)N1CCC[C@H]1C(=O)N[C@@H](CCC(=O)O)C(=O)N[C@@H](Cc1cnc[nH]1)C(=O)N[C@@H](CCC(N)=O)C(=O)N[C@@H](CCCNC(=N)N)C(=O)N[C@H](C(=O)N[C@@H](CCC(N)=O)C(=O)N[C@@H](CCC(N)=O)C(=O)N[C@@H](CCCNC(=N)N)C(=O)N[C@@H](CCCCN)C(=O)N[C@@H](CCC(=O)O)C(=O)N[C@@H](CO)C(=O)N[C@@H](CCCCN)C(=O)N[C@@H](CCCCN)C(=O)N1CCC[C@H]1C(=O)N1CCC[C@H]1C(=O)N[C@@H](C)C(=O)N[C@@H](CCCCN)C(=O)N[C@@H](CC(C)C)C(=O)N[C@@H](CCC(N)=O)C(=O)N1CCC[C@H]1C(=O)N[C@@H](CCCNC(=N)N)C(=O)O)C(C)C
clearance (ELISA; healthy humans, both sexes, plasma; intravenous infusion, 1 µg/kg/h, 65 min): 7.66 ± 2.36 mL/min/kg

CN(C)c1ccc(C(=O)NCCCCN2CCN(c3ccccc3O[11CH3])CC2)cc1
uptake ratio (male Sprague Dawley rat, lung; iv, dose not given, together with: cyclosporin A pretreatment; relative to: cyclosporin A over untreated): 0.94

CSCC[C@H](NC(=O)CNC(=O)[C@H](CC(=O)O)NC(=O)[C@@H](NC(=O)[C@@H](NC(=O)[C@@H](NC(=O)CNC(=O)[C@H](CCC(N)=O)NC(=O)[C@H](CCSC)NC(=O)[C@H](CC(=O)O)NC(=O)[C@H](C)NC(=O)[C@H](C)NC(=O)[C@@H](NC(=O)[C@H](CO)NC(=O)[C@@H](N)CC(C)C)[C@@H](C)O)C(C)C)C(C)C)[C@@H](C)O)C(=O)N[C@@H](C)C(=O)N[C@@H](CO)C(=O)NCC(=O)N[C@@H](CC(C)C)C(=O)N[C@@H](CC(=O)O)C(=O)N[C@@H](CCCCN)C(=O)N[C@@H](CC(=O)O)C(=O)N[C@@H](Cc1ccc(O)cc1)C(=O)N[C@@H](CC(C)C)C(=O)N[C@@H](CCCCN)C(=O)N1CCC[C@H]1C(=O)N[C@@H](CC(=O)O)C(=O)N[C@@H](CC(=O)O)C(=O)O
Cmax (human, serum; intravenous, 1.66 mg/kg, patients, infusion): 6990 ng/mL

O=C(CCCCCCC(=O)Nc1ccccc1N=Nc1ccccc1)NO
cis isomer content (1H NMR; DMSO; irradiation 365 nm): 83%

CC(=O)CCC1C(=O)NC(C(C)C)C(=O)NC(Cc2cccc(O)c2)C(=O)N2CCCC(N2)C(=O)OC(C(C)=CC=CC(=O)N2CCCCO2)CC=CC=CC(O)C(C)C1O (stereo not drawn)
unbound fraction (dialysis; human plasma; 1 µM, 5 h, 37 °C): 0.28

COc1cc2ccnc(Cc3ccc(O[11CH3])c(OC)c3)c2cc1OC
brain uptake (Sprague-Dawley rat, striatum; i.v., 30 min): 0.051 %ID/g

C=Cc1cc(O)cc2nc(-c3ccc(O)c([76Br])c3)oc12
tissue uptake (female C57BL/6 mouse, blood; 1 h, high dose): 0.36 ± 0.14 %ID/g

COc1cc(C(=O)NCCOCCOCCOCCNC(=O)c2ccc([18F])nc2)ccc1NC(=O)C1NC(CC(C)(C)C)C(C#N)(c2ccc(Cl)cc2F)C1c1cccc(Cl)c1F (stereo not drawn)
tumour-to-tissue ratio (athymic male mice, SJSA-1 xenograft; 2 h; relative to: tumour over muscle): 1.29 ± 0.45

C[C@@H](O)[C@H](NC(=O)[C@@H]1CCCN1C(=O)CNC(=O)[C@@H]1CC(=O)NCC(=O)N[C@H]2Cc3cn(c4ccccc34)-c3cc(ccc3O)C[C@H](NC2=O)C(=O)NCC(=O)N[C@@H](CO)C(=O)N[C@@H](CCC(N)=O)C(=O)N[C@@H](Cc2c[nH]c3ccccc23)C(=O)N1)C(=O)NCC(=O)N[C@@H](CCC(N)=O)C(=O)N[C@@H](CCCNC(=N)N)C(=O)N[C@@H](CC(=O)O)C(=O)O
thermal stability (HPLC-MS; water; 95 °C): no effect

O=C([O-])C[N+]12CC(=O)[O][Re-2]1[O]P(=O)([O-])C2.[C-]#[O+].[C-]#[O+].[C-]#[O+] (stereo not drawn)
isomer fraction at equilibrium (HPLC; aqueous solution; 1 d, pH 11, room temperature): 59%

CC(=O)Oc1c2c(c3ccc4c(c3c1OC(C)=O)C=CC(=O)C4(C)C)OC[C@@H]2C
acute toxicity (BALB/c mice; intravenous, 50 and 25 mg/kg, body weight, organs, blood): no effect

Cc1nc(-c2ccc(Cl)cc2)nc2sc3c(=O)n(CCN4CCOCC4)cnc3c12
permeability (Pe) (porcine brain lipid; 100 µg/mL, 18 h, pH 7.4): 3.74 ± 0.136 ×10⁻⁶ cm/s

COc1ccc(NC(=O)Cn2c(=O)c3ccccc3n(CC(=O)Nc3cc([125I])c(OC)cc3OC)c2=O)cc1
tracer uptake (rat, blood; intravenous, 30 min): 0.08 %ID/g

CCCCCCCC(=O)SCC/C=C/[C@@H]1CC(=O)NCc2nc(cs2)C2=N[C@@](C)(CS2)C(=O)N[C@@H](C(C)C)C(=O)N1
volume of distribution at steady state (female NIH Swiss mice; intravenous bolus, 5 mg/kg, two-compartment model): 12.1 L/kg

CCCCCCCCC1(CCCCCCCC)c2cc(-c3cc4[n+]5c(c3)-c3cccc[n+]3[Ir-3]536([c]5c(c(C)cc(C)c5-c5cccc[n+]53)-c3cccc[n+]36)[n+]3ccccc3-4)ccc2-c2ccc(-c3cc4[n+]5c(c3)-c3cccc[n+]3[Ir-3]536([c]5c(c(C)cc(C)c5-c5cccc[n+]53)-c3cccc[n+]36)[n+]3ccccc3-4)cc21.F[P-](F)(F)(F)(F)F.F[P-](F)(F)(F)(F)F.F[P-](F)(F)(F)(F)F.F[P-](F)(F)(F)(F)F
singlet oxygen quantum yield (acetonitrile): 4%

O=C(O)CCC(NP(=O)(O)OCCC[C@@H](NC(=O)CCC(NC(=O)CCCCCNC(=O)c1ccc([18F])cc1)C(=O)O)C(=O)O)C(=O)O (stereo partly drawn)
tumour uptake (radioactivity; mouse, CWR22Rv1 xenograft, tumour; 1 h): 3.16%

CCc1c2c(nc3ccc(OC4OC(C(=O)O)C(O)C(O)C4O)cc13)-c1cc3c(c(=O)n1C2)COC(=O)C3(O)CC (stereo not drawn)
AUC(0-inf) (human patients, plasma; intravenous, 42 mg/m^2 of parent drug): 801 ng·h/mL

CC[C@H](C)[C@H](NC(=O)[C@H](CCCCN)NC(=O)[C@H](Cc1ccccc1)NC(=O)[C@H]1CCC[C@@H]1NC(=O)[C@@H](N)CCCCN)C(=O)N[C@@H](C)CC(=O)N[C@@H](CCCCN)C(=O)N[C@@H](CCCCN)C(=O)N[C@H]1CCC[C@@H]1C(=O)N[C@H](C(=O)N[C@@H](CCCCN)C(=O)N[C@@H](CCCNC(=N)N)C(=O)N[C@H](CC(N)=O)Cc1ccccc1)C(C)C
helical rigidity (circular dichroism; trifluoroethanol in water; relative to: 15% TFE over 100% TFE): 27 ± 6%

CC(=CCC(O)C(C)=Cc1csc(C)n1)CC=CC(C)C(O)C(C)C(=O)C(C)(C)C(O)CC(=O)O (stereo not drawn)
half-life (human, plasma; intravenous infusion, 36 mg/m2 KOS-1584, 3 h infusion, cycle 1): 31 ± 16 h

CC(C)[C@@H]1NC(=O)[C@H](Cc2ccccc2)NC(=O)[C@H](Cc2ccc(O)cc2)NC(=O)CCSSC[C@@H](C(=O)N2CCC[C@H]2C(=O)N[C@H](CCCNC(=N)N)C(=O)NCC(N)=O)NC(=O)[C@H](CCC(N)=O)NC1=O
glucose (Wistar rat, blood; intravenous, 100 µg/kg single dose, 72 h): 230 ± 12.1 mg/dL

CN[C@](C)(C[18F])C(=O)O
tracer uptake (mouse, blood; 1 h, tumour-bearing): 1 %ID/g

CC[C@H](C)[C@H](NC(=O)[C@H](C)NC(=O)CNC(=O)[C@@H](N)CCSC)C(=O)N[C@@H](C)C(=O)N[C@@H](CCCCN)C(=O)N[C@@H](CC(C)C)C(=O)N[C@H](C(=O)N[C@@H](C)C(=O)N[C@@H](CCCCN)C(=O)N[C@@H](Cc1ccccc1)C(=O)NCC(=O)N[C@@H](Cc1c[nH]c2ccccc12)C(=O)N1CCC[C@H]1C(=O)N[C@@H](Cc1ccccc1)C(=O)N[C@H](C(=O)N[C@@H](CCCCN)C(=O)N[C@@H](CCCCN)C(=O)N[C@@H](Cc1ccccc1)C(=O)N[C@@H](Cc1ccc(O)cc1)C(=O)N[C@@H](CCCCN)C(=O)N[C@@H](CCC(N)=O)C(=O)N[C@H](C(=O)N[C@@H](CCSC)C(=O)N[C@@H](CCC(N)=O)C(=O)N[C@@H](Cc1ccccc1)C(=O)N[C@H](C(=O)NCC(=O)N[C@@H](CCC(N)=O)C(=O)NCC(=O)N[C@@H](Cc1c[nH]c2ccccc12)C(=O)N[C@H](C(=O)N[C@H](C(=O)N[C@@H](CC(=O)O)C(=O)N[C@@H](CCC(N)=O)C(=O)N[C@H](C(=O)N[C@@H](CCC(=O)O)C(=O)N[C@@H](CCCCN)C(=O)N[C@@H](Cc1c[nH]c2ccccc12)C(=O)N[C@@H](CCCNC(=N)N)C(=O)N[C@@H](CCCCN)C(=O)N[C@@H](CCCNC(=N)N)C(=O)N[C@@H](Cc1c[nH]cn1)C(=O)O)[C@@H](C)CC)[C@@H](C)CC)[C@@H](C)O)[C@@H](C)CC)[C@@H](C)CC)[C@@H](C)CC)C(C)C
Tm (thermal unfolding, far-UV CD; 10 mM sodium phosphate; 5-20 µM, pH 7.2): 44.4 ± 0.3 °C

CC(C)C[C@H](NC(=O)[C@H](CCCCN)NC(=O)[C@H](C)NC(=O)[C@H](CC(C)C)NC(=O)[C@H](CCCCN)NC(=O)[C@H](CCCCN)NC(=O)[C@H](C)NC(=O)[C@H](CC(C)C)NC(=O)[C@H](CCCCN)NC(=O)[C@H](C)NC(=O)[C@H](CC(C)C)NC(=O)[C@H](CCCCN)NC(=O)[C@H](Cc1c[nH]cn1)NC(=O)[C@H](C)NC(=O)[C@@H](N)CC(=O)O)C(=O)N[C@@H](C)C(=O)N[C@@H](CCCCN)C(N)=O
HD10 (haemolysis; human red blood cells; 1 h): 8 µM

COCC(=O)NCCSc1c(-c2ccc(Br)cc2)[nH]c2ccccc12
CL (rat): 61 mL/min/kg

Repeated from above:
CSCC[C@H](NC(=O)CNC(=O)[C@H](CC(=O)O)NC(=O)[C@@H](NC(=O)[C@@H](NC(=O)[C@@H](NC(=O)CNC(=O)[C@H](CCC(N)=O)NC(=O)[C@H](CCSC)NC(=O)[C@H](CC(=O)O)NC(=O)[C@H](C)NC(=O)[C@H](C)NC(=O)[C@@H](NC(=O)[C@H](CO)NC(=O)[C@@H](N)CC(C)C)[C@@H](C)O)C(C)C)C(C)C)[C@@H](C)O)C(=O)N[C@@H](C)C(=O)N[C@@H](CO)C(=O)NCC(=O)N[C@@H](CC(C)C)C(=O)N[C@@H](CC(=O)O)C(=O)N[C@@H](CCCCN)C(=O)N[C@@H](CC(=O)O)C(=O)N[C@@H](Cc1ccc(O)cc1)C(=O)N[C@@H](CC(C)C)C(=O)N[C@@H](CCCCN)C(=O)N1CCC[C@H]1C(=O)N[C@@H](CC(=O)O)C(=O)N[C@@H](CC(=O)O)C(=O)O
Cmax (human, serum; intravenous, 1.66 mg/kg, patients, infusion): 6990 ng/mL

O=C(CCCCCCC(=O)Nc1ccccc1N=Nc1ccccc1)NO
cis isomer content (1H NMR; DMSO; irradiation 365 nm): 83%

CC(=O)CCC1C(=O)NC(C(C)C)C(=O)NC(Cc2cccc(O)c2)C(=O)N2CCCC(N2)C(=O)OC(C(C)=CC=CC(=O)N2CCCCO2)CC=CC=CC(O)C(C)C1O (stereo not drawn)
unbound fraction (dialysis; human plasma; 1 µM, 5 h, 37 °C): 0.28

COc1cc2ccnc(Cc3ccc(O[11CH3])c(OC)c3)c2cc1OC
brain uptake (Sprague-Dawley rat, striatum; i.v., 30 min): 0.051 %ID/g

C=Cc1cc(O)cc2nc(-c3ccc(O)c([76Br])c3)oc12
tissue uptake (female C57BL/6 mouse, blood; 1 h, high dose): 0.36 ± 0.14 %ID/g
